Assay results from different studies.
Lines come from different studies, so protocols differ. Several values in a cell are separate wells, animals, samples, runs or records. Numbers after ± are the reported error.
CDK5 with p25: Cyclin-dependent kinase 5, with p25 (CDK5, Homo sapiens, UniProt Q00535)
UniProt Q00535, sequence (whole entry, looked up): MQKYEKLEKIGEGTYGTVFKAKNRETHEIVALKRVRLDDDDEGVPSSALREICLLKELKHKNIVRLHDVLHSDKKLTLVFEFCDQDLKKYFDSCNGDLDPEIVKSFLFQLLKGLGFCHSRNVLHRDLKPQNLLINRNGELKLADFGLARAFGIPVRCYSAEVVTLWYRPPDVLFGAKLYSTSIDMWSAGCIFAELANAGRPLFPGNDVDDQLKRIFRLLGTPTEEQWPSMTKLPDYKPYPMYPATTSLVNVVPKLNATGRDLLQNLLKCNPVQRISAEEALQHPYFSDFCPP
U2AF2: U2AF2 148-342 (Homo sapiens, UniProt P26368)
UniProt P26368, sequence (whole entry, looked up): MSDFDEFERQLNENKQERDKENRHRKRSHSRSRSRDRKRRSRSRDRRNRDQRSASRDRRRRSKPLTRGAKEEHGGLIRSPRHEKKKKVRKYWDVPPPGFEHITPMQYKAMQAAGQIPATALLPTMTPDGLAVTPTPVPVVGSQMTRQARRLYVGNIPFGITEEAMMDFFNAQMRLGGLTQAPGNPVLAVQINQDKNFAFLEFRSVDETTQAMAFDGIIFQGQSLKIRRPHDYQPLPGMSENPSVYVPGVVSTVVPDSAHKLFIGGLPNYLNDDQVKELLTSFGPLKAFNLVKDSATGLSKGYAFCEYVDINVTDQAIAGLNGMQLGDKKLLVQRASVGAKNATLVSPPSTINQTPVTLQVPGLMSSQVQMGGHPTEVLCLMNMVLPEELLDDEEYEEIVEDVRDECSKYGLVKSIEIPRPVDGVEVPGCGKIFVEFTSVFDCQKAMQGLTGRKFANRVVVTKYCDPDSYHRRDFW
B1: histone H1t human; sequence looked up; chain SETVPAASASAGVAAMEKLPTKKRGRKPAGLISASRKVPNLSVSKLITEALSVSQERVGMSLVALKKALAAAGYDVEKNNSRIKLSLKSLVNKGILVQTRGTGASGSFKLSKKVIPKSTRSKAKKSVSAKTKKLVLSRDSKSPKTAKTNKRAKKPRATTPKTVRSGRKAKGAKGKQQQKSPVKARASKSKLTQHHEVNVRKATSKK
B2: chain MSEILPYGEDKMGRFGADPEGSDLSFSCRLQDTNSFFAGNQAKRPPKLGQIGRAKRVVIEDDRIDDVLKGMGEKPPSGV
UniProt Q64663, sequence (whole entry, unmodified, looked up): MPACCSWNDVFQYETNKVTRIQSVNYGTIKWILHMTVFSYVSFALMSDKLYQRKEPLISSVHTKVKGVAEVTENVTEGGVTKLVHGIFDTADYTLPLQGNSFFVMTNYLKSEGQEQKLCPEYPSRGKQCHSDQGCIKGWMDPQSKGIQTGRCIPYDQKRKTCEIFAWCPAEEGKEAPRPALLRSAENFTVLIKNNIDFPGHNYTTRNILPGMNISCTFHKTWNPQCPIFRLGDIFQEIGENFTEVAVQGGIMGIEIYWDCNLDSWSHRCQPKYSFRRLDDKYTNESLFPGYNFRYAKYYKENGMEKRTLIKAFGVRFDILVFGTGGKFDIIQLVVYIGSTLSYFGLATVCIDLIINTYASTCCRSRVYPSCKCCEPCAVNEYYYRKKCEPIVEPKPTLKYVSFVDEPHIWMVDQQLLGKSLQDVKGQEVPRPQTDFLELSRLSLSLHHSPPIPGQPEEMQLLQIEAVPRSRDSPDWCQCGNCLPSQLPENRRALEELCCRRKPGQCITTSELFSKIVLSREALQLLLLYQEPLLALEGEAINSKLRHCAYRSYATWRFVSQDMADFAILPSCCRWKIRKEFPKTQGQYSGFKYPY
UniProt Q9UQM7, sequence (whole entry, unmodified, looked up): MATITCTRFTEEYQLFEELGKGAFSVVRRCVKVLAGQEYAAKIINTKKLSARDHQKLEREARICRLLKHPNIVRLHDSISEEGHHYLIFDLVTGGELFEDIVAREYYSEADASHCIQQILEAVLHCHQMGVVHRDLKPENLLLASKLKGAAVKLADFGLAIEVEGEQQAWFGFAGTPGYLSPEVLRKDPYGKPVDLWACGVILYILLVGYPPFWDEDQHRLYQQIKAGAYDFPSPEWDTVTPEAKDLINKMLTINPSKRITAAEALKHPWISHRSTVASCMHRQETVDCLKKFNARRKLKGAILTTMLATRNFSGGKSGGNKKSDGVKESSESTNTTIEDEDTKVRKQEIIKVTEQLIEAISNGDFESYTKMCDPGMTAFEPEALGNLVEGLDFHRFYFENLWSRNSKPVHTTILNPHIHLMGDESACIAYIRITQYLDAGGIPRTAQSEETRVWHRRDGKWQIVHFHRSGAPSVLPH
UniProt Q5ANA3, sequence (whole entry, looked up): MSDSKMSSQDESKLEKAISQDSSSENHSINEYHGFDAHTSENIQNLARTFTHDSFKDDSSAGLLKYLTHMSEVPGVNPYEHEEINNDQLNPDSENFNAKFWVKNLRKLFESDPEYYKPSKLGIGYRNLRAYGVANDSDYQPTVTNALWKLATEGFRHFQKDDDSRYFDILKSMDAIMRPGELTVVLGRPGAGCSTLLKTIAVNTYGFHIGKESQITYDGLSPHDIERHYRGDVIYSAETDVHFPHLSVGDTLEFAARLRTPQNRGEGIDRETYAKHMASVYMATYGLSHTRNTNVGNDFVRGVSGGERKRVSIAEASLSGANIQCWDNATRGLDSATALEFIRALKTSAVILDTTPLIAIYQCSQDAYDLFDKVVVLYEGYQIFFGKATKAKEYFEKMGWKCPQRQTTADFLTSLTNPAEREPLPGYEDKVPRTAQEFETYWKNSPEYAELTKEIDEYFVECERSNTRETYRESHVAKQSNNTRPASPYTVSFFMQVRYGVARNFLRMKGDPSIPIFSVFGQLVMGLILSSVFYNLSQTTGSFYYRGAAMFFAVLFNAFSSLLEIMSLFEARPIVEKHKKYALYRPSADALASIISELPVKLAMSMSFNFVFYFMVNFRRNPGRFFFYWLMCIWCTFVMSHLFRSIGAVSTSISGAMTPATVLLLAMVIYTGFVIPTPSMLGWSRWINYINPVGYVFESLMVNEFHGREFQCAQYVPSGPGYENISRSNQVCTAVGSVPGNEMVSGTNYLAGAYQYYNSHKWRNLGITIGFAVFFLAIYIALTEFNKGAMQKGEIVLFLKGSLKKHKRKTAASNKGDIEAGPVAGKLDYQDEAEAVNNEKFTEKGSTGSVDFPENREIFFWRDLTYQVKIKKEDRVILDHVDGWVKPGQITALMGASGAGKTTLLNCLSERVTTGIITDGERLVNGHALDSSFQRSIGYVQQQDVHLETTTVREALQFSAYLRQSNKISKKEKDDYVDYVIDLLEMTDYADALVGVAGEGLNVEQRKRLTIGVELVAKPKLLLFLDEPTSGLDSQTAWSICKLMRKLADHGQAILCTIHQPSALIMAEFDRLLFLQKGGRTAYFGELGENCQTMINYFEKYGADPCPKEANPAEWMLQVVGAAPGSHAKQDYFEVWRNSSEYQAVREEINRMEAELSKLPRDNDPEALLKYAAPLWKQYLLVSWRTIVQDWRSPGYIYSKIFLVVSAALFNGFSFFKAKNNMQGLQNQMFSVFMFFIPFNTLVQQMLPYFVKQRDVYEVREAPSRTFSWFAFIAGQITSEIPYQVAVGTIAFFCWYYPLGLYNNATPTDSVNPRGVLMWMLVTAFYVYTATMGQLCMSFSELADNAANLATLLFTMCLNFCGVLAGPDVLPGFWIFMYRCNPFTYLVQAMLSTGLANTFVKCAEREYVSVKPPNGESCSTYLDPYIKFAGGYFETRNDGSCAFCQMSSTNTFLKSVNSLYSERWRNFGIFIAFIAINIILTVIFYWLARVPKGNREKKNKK

For `KEAFWDRCLSVINLMSSKMLNINA`, the activity change was 79% (CDK5 with p25; phosphotransferase activity, radiometric; peptide; concentration not given, 10% DMSO, with: histone substrate; relative to: p5-WT peptide).
With `milbemycin oxime` the fraction bound was 91.3% (CDR1 (Candida albicans, UniProt Q5ANA3); binding, microscale thermophoresis; 1.25 µM).
The Hill coefficient of `human ME2 K81R` is reported as 1.04 ± 0.02 (enzyme activity, NADH absorbance; with fumarate 3 mM, with: L-malate varied).
`B1 (histone H1t human)`: “log2 fold change” -0.46 (CYB5R4 knockout human cells; PP4 interaction, 3xFLAG-PP4C IP-MS; concentration not given; relative to: CYB5R4 KO over parental).
With `KEAFWDRCLSVVNLMSSKMLQINA` the activity change was 59% (CDK5 with p25; phosphotransferase activity, radiometric; peptide; concentration not given, 10% DMSO, with: histone substrate; relative to: p5-WT peptide).
The Hill coefficient of `human ME2 Q101T` is reported as 1.01 ± 0.08 (enzyme activity, NADH absorbance; with fumarate 3 mM, with: L-malate varied).
`H-KQGTGKVQK-OH` — result for “normalised fluorescence intensity”: 0.326 (HeLa nuclei; peripheral DNA signal, confocal microscopy, PI staining; peptide; mean of nuclei, with: MNase 10-2 U/mL; relative to: 0 U/mL MNase).
The Kd of `CUUUCUUCU (ssRNA)` is reported as 1280 nM (U2AF2; sequencing of bound RNA; RNA; motif only).
The normalized current of `BzATP` is reported as 1 (P2X purinoceptor 7 (P2rx7, Rattus norvegicus, UniProt Q64663, Q143A); ion current, agonist, two-electrode voltage clamp; Xenopus oocytes; 100 µM).
With `KEAFWDRCLSVINLMSSKMLQINM` the activity change was -26% (CDK5 with p25; phosphotransferase activity, radiometric; peptide; concentration not given, 10% DMSO, with: histone substrate; relative to: p5-WT peptide).
Under “rate constant k-2”, `11-deoxycorticosterone` is recorded as 11.2 ± 0.631 s⁻¹ (CYP11B2 (human); substrate binding, stopped-flow global kinetic fitting; purified enzyme; 3-state conformational selection model, with: no adrenodoxin).
With `KEAFWDRCLSGINLMSSKMLQINA` the activity change was 54% (CDK5 with p25; phosphotransferase activity, radiometric; peptide; concentration not given, 10% DMSO, with: histone substrate; relative to: p5-WT peptide).
For `proteasome subunit alpha-1 (human)`, “log2 fold change” read 0.29 (CYB5R4 knockout human cells; PP4 interaction, 3xFLAG-PP4C IP-MS; concentration not given; relative to: CYB5R4 KO over parental).
`human ME2 I58F` gave an activation fold of 0.9 (enzyme activity, activator, NADH absorbance; recombinant enzyme; range over 0 to 5 mM, pH 7.4; relative to: wild type).
`UUACUCUUU (ssRNA)` has a Kd of 2150 nM (U2AF2; sequencing of bound RNA; RNA; motif only).
`human ME2 I99V` gave an activation fold of 1.4 (enzyme activity, activator, NADH absorbance; recombinant enzyme; range over 0 to 5 mM, pH 7.4; relative to: wild type).
The −TΔS of `B2` is reported as -0.954 kcal/mol and -1.21 kcal/mol (Calcium/calmodulin-dependent protein kinase type II subunit alpha (CAMK2A, Homo sapiens, UniProt Q9UQM7, D135N/E236K); binding, ITC; kinase domain D135N/E236K).
The activation fold of `human ME2 R70K` is reported as 1.3 (enzyme activity, activator, NADH absorbance; recombinant enzyme; range over 0 to 5 mM, pH 7.4; relative to: wild type).
The activity change of `KEAFWDRCLSVINLMSSKMLQING` is reported as 38% (CDK5 with p25; phosphotransferase activity, radiometric; peptide; concentration not given, 10% DMSO, with: histone substrate; relative to: p5-WT peptide).

Repeated from above:
`human ME2 I99V` gave an activation fold of 1.4 (enzyme activity, activator, NADH absorbance; recombinant enzyme; range over 0 to 5 mM, pH 7.4; relative to: wild type).
The −TΔS of `B2` is reported as -0.954 kcal/mol and -1.21 kcal/mol (Calcium/calmodulin-dependent protein kinase type II subunit alpha (CAMK2A, Homo sapiens, UniProt Q9UQM7, D135N/E236K); binding, ITC; kinase domain D135N/E236K).
